# Measurements collected from several papers.
# Each numbered part is a random draw from the data of one study; scales do not carry over between parts. Values joined by “and” are separate records of one study, mostly repeats; a detail may differ.
# Chain of UniProt Q9UKT9 (whole entry, looked up): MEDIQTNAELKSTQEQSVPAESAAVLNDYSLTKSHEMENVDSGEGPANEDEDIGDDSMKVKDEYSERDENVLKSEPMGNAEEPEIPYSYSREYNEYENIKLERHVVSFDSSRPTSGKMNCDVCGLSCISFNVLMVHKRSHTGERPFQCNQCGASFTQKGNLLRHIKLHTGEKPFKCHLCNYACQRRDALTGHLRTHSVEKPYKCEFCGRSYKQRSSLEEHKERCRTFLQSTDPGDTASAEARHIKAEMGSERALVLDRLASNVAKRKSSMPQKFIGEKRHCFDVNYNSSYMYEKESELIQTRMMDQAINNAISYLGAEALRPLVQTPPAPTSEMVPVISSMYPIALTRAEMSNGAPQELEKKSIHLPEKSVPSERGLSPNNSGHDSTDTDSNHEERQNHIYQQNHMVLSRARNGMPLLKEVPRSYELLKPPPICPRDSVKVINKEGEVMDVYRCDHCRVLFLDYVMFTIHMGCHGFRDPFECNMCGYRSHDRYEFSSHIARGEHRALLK
# Chain of UniProt Q08345 (whole entry, looked up): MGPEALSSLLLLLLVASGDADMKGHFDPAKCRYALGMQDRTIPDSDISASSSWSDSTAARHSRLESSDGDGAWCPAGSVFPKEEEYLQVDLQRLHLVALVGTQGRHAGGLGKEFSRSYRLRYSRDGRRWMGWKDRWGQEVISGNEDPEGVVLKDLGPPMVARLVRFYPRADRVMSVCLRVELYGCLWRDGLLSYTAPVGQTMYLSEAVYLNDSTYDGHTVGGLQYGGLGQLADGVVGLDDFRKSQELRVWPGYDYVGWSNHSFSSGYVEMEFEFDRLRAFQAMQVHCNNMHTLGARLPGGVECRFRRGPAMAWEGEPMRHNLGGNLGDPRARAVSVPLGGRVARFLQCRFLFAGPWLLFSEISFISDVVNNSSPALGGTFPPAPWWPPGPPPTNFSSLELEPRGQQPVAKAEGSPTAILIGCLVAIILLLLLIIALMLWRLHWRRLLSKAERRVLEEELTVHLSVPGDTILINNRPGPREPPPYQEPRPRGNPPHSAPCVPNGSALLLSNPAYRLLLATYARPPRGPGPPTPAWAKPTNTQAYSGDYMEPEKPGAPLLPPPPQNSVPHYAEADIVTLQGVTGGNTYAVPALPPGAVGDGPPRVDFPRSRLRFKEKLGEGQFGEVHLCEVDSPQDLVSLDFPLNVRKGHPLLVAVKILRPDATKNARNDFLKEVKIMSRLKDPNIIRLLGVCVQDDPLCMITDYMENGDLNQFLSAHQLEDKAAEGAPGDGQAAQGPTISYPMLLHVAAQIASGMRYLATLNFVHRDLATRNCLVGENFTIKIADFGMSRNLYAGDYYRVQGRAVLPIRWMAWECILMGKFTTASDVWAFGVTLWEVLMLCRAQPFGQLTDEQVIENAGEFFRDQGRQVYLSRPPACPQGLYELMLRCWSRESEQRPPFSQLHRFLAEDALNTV
# Chain of UniProt Q9UKS7 (whole entry, looked up): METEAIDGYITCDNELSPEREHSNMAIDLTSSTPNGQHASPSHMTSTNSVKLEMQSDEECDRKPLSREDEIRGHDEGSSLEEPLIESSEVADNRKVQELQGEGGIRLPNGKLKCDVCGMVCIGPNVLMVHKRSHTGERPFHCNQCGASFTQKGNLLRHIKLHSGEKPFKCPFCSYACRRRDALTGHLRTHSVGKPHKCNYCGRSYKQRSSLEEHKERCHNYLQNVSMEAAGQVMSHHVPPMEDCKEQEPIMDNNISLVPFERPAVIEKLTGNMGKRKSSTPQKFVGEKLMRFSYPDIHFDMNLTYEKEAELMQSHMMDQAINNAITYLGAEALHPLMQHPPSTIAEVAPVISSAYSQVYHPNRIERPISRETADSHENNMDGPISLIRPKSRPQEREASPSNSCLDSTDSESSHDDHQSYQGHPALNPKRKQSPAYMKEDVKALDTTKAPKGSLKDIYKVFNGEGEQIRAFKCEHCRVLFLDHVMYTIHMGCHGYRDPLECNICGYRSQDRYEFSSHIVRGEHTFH
# Chain of UniProt P48729 (whole entry, looked up): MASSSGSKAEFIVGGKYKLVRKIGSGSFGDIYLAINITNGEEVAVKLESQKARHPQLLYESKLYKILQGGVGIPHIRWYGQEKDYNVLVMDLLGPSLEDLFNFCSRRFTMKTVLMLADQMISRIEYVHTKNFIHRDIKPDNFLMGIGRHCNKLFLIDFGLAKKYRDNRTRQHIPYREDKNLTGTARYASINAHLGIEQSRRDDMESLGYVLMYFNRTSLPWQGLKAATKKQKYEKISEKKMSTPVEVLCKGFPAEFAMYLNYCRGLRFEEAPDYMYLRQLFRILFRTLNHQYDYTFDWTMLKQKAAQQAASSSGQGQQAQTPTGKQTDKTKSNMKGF
# Chain of UniProt P49759 (whole entry, looked up): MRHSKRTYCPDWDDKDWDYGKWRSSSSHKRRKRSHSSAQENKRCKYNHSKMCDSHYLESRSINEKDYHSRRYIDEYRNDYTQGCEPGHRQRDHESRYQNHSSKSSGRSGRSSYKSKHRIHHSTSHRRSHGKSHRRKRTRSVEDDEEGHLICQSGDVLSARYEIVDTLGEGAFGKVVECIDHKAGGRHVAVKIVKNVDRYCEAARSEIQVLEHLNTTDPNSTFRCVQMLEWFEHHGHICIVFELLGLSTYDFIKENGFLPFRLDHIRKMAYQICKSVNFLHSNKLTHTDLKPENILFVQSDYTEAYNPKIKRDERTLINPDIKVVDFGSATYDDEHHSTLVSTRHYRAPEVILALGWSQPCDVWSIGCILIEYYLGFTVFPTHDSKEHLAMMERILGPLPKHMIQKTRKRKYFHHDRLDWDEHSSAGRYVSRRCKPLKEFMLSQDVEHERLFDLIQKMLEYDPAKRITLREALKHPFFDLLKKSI
# Chain of UniProt Q08881 (whole entry, looked up): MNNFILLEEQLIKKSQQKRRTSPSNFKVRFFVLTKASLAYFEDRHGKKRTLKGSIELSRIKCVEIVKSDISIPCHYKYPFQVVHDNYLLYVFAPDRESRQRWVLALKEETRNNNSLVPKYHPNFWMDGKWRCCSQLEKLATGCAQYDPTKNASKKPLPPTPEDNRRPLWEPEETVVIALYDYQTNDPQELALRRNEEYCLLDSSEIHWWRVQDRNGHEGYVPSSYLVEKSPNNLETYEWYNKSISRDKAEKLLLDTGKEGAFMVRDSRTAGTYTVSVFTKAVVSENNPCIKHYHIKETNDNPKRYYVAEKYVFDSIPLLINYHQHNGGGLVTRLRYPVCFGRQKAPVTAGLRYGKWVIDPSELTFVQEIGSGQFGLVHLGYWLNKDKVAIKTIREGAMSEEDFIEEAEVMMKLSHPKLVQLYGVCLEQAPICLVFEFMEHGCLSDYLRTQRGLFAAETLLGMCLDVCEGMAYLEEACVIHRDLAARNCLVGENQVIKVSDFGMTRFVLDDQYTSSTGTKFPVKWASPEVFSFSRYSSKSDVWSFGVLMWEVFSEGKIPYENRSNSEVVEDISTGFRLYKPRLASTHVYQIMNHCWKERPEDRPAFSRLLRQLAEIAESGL

# Block 1
# Structure (SMILES): O=C1CCC(N2Cc3cc(C4CCN(Cc5ccccc5)CC4)ccc3C2=O)C(=O)N1 (stereo not drawn)
# Mode: degrader
# GSPT1: Eukaryotic peptide chain release factor GTP-binding subunit ERF3A (GSPT1, Homo sapiens, UniProt P15170)
# Chain of UniProt P15170 (whole entry, looked up): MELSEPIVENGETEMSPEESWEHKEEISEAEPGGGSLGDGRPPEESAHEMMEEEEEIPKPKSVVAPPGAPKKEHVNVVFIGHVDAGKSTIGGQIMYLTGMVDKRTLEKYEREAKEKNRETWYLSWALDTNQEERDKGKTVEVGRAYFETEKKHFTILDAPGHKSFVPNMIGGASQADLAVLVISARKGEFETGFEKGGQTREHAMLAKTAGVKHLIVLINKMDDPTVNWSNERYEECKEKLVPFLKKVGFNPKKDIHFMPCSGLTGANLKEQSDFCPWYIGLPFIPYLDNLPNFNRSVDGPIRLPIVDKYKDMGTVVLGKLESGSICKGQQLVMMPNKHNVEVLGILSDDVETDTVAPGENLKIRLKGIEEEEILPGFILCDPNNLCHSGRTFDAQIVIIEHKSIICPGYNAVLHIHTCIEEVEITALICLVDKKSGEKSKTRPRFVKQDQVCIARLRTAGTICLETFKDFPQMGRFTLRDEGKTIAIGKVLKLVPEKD
# DNA-binding protein Ikaros: DNA-binding protein Ikaros (Homo sapiens, UniProt Q13422)
# Chain of UniProt Q13422 (whole entry, looked up): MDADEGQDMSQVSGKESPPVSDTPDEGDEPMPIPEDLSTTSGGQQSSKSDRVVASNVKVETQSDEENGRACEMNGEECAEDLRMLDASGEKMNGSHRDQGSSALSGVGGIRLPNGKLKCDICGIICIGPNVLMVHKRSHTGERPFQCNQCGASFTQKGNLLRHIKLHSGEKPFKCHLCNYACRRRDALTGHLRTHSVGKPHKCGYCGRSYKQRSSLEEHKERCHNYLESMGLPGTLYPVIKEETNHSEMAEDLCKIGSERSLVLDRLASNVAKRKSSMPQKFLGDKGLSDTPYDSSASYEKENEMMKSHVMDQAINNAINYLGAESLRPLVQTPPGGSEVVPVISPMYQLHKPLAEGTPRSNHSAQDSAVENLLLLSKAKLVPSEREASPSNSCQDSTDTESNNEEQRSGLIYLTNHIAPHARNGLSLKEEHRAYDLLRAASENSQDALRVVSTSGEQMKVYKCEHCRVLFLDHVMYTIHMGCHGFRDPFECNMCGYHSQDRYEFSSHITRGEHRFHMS
# IKZF4: Zinc finger protein Eos (IKZF4, Homo sapiens, UniProt Q9H2S9)
# Chain of UniProt Q9H2S9 (whole entry, looked up): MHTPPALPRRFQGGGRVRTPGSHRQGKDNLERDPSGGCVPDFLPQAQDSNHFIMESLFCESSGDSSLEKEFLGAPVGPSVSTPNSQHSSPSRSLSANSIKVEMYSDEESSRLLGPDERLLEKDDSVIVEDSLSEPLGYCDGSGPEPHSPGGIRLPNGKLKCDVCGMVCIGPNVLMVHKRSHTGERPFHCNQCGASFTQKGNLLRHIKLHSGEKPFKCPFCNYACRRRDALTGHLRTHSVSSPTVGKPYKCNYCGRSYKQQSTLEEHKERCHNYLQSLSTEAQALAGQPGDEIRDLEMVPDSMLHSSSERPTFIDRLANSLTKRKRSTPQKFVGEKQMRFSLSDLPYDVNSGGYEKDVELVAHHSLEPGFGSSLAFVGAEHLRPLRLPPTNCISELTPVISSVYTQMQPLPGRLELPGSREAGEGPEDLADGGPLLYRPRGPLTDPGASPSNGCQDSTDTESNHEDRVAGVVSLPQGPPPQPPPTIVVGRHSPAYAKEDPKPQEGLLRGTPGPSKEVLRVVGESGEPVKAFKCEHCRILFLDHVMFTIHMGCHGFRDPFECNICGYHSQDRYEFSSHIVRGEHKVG
target,test,system,setting,remaining protein
GSPT1,HiBiT,HEK293,"3.333 µM, 6 h",110%
"CRBN/Zinc finger protein Helios (Homo sapiens, UniProt Q96SW2+Q9UKS7)",flow cytometry,primary human regulatory T cells,"0.0004572 µM, 3 h",104%
DNA-binding protein Ikaros,HiBiT,HEK293,10 µM,105% and 95.5%
IKZF4,HiBiT,HEK293,"5.08e-05 µM, 3 h",113%
"Zinc finger protein Aiolos (Homo sapiens, UniProt Q9UKT9)",HiBiT,HEK293,1.111 µM,85% and 82.1%
DNA-binding protein Ikaros,HiBiT,HEK293,3.333 µM,92.1% and 87.9%
GSPT1,HiBiT,HEK293,"0.004572 µM, 6 h",89.1%
IKZF4,HiBiT,HEK293,"0.1111 µM, 3 h",112%
"CSNK1A1 (Homo sapiens, UniProt P48729)",HiBiT,HEK293,"0.0005081 µM, 6 h",102%

# Block 2
# Compound: CN1CCN(c2cnc3c(C4CCN(C(=O)c5ccc(OC(F)(F)F)cc5N)CC4)ncnc3c2)CC1
# Observed: cell-free assay
# Technique: competition with immobilised ligand
# Tested at: 1 µM
target,remaining binding [%]
"PLK2 (Homo sapiens, UniProt Q9NYY3)",93
"FGFR4 (Homo sapiens, UniProt P22455)",100
"CLK1 (Homo sapiens, UniProt P49759)",100
"EGFR (Homo sapiens, UniProt P00533, del752-759)",38
"Tyrosine-protein kinase ABL1, phosphorylated (ABL1, Homo sapiens, UniProt P00519, Q252H)",100
"KIT (Homo sapiens, UniProt P10721, D816V)",100
"DCLK3 (Homo sapiens, UniProt Q9C098)",91
"TAOK1 (Homo sapiens, UniProt Q7L7X3)",100

# Block 3
# SMILES: CC(C)[C@H](CO)Nc1nc(Nc2cc(N)cc(Cl)c2)c2ncn(C(C)C)c2n1
# Observed: enzyme activity
# Mode: inhibitor
# Tested at: 0.5 µM
# Reference: control
target,remaining activity [%]
"FLT4 (Homo sapiens, UniProt P35916)",80.7
"FER (Homo sapiens, UniProt P16591)",54.9
"MATK (Homo sapiens, UniProt P42679)",111
"HIPK1 (Homo sapiens, UniProt Q86Z02)",99.2
"LIM domain kinase 1 (LIMK1, Homo sapiens, UniProt P53667)",107
"MARK3 (Homo sapiens, UniProt P27448)",85.2
"STK25 (Homo sapiens, UniProt O00506)",81.8
"ALK (Homo sapiens, UniProt Q9UM73)",79.6
"ITK (Homo sapiens, UniProt Q08881)",80.2
"PASK (Homo sapiens, UniProt Q96RG2)",106
"PRKX (Homo sapiens, UniProt P51817)",101

# Block 4
# SMILES: C[C@H]1CC[C@H](n2c3cnccc3c3cnc(Nc4ccc5c(n4)CCN(C(=O)CO)C5)nc32)CC1
# Technique: competition with immobilised ligand
# Tested at: 1 µM
target,test,remaining binding [%]
"Aurora kinase C (AURKC, Homo sapiens, UniProt Q9UQB9)",cell-free assay,34
"STK26 (Homo sapiens, UniProt Q9P289)",binding,19
"EPHA7 (Homo sapiens, UniProt Q15375)",cell-free assay,94
"TTK (Homo sapiens, UniProt P33981)",binding,4.6
"EPHB1 (Homo sapiens, UniProt P54762)",cell-free assay,74
"DDR1 (Homo sapiens, UniProt Q08345)",cell-free assay,52
"EPHA5 (Homo sapiens, UniProt P54756)",cell-free assay,100
"STK10 (Homo sapiens, UniProt O94804)",binding,100
